Experimental data gathered from unrelated publications.
Every numbered part comes from another study and shows a few of its results, in no order. Substitutions count along the parent as printed.

Sample 1 — technique: protein-binding microarray; molecule type: double-stranded DNA, one strand shown; sample: in vitro; tested at: 250 nM; setting: 60-bp whole probe; together with: salmon DNA 0.4 mg/ml; baseline: random background probes; reading: higher = stronger binding; constant ends, left off below: GCCTAGCAC … GTCTTGATTCGCTTGACGCTGCTG
Target: Interferon regulatory factor 7, full length, phosphomimetic (IRF7, Homo sapiens, UniProt Q92985, residues 1-503, S101K/S471D/S472D/S475D/S476D/S477D/S483D/S484D/S487D)
Residues (chain): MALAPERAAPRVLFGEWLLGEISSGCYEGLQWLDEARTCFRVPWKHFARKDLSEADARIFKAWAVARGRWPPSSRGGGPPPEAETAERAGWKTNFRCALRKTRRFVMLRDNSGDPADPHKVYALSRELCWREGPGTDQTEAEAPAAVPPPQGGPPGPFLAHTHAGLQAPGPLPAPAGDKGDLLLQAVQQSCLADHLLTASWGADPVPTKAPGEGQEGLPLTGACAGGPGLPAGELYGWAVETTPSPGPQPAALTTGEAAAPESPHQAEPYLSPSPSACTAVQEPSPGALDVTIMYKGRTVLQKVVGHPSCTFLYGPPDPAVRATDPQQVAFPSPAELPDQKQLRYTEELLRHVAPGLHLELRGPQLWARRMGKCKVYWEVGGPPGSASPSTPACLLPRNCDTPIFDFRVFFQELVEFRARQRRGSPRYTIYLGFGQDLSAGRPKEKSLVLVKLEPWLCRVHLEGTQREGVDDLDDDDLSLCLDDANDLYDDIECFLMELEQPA
| Oligonucleotide | log fluorescence [z-score] |
| --- | --- |
| TTATGTGTAGGTCTTAAATAGTGCTAG | -0.374 |
| TGTGCTTTCCTGATGGTTTTGTGCTAG | 0.675 |
| TTAGATCTCAGTTTCGATTAGTGCTAG | 8.19 |
| TCACATTGCCTGTTTTTCACTGTGCTA | 0.463 |
| AAGAATCAGGGGTTTTATCCGTGCTAG | -0.763 |
| CACGGACTGGGTCTCGGGACGTGCTAG | -0.42 |
| TTAGAACTGGGGACTTGATTAGTGCTA | -0.299 |
| TTAGCTTCCAGTTTCGATTAGTGCTAG | 8.05 |

Sample 2 — target: CCNE1, cyclin fold, Cln2 fusion (human); technique: yeast growth competition, sequencing; sample: yeast; setting: strong parent motif; baseline: not given; reading: higher = stronger binding; starting sequence: viral docking peptide; TSVRRALFTGGSD
| Variant | normalised enrichment score |
| --- | --- |
| F8D | 0.0105 |
| A6N | 3.43 |
| G11L | 5.17 |
| T9F | 5.16 |
| R5V | 0.418 |
| S12V | 5.55 |
| S12I | 5.45 |
| G10Q | 5.56 |
| S12H | 5.45 |
| F8I | 0.0455 |
| S12L | 4.83 |
| R4A | 2.75 |
| A6E | 3.8 |
| S2K | 5.39 |
| L7E | 0.0159 |
| V3G | 0.805 |
| L7N | 0.0927 |
| A6F | 1.51 |
| R4P | 0.621 |
| T9P | 5.45 |
| A6W | 1.36 |
| A6L | 2.28 |
| S12W | 5.38 |
| V3A | 4.1 |
| S2F | 4.48 |

Sample 3 — effect on: peptide-MHC binding; molecule type: peptide; tested at: concentration not given
Target: HLA class I histocompatibility antigen, A alpha chain, allele A*80:01 (Homo sapiens, UniProt P04439)
| Molecule | binding |
| --- | --- |
| DTWHGFKNM | inactive |
| AHYEEDVNL | inactive |
| LVKTESWIL | inactive |
| NTDNKFISY | inactive |
| WSHRVTSPK | inactive |
| AYDHGNVIL | inactive |

Sample 4 — target: UBE2W UBC core domain (UniProt Q96B02); technique: yeast two-hybrid; sample: yeast; setting: mostly zero background; baseline: not given; reading: higher = stronger interaction
B1: UHRF2 RING domain (UniProt Q96PU4); chain CGGDPEKKCHSCSCRVCGGKHEPNMQLLCDECNVAYHIYCLNPPLDKVPEEEYWYCPSCKTDSSEVVKAGER
B2: RC3H2 RING domain (UniProt Q9HBD1); chain QAAQWTEFLSCPICYNEFDENVHKPISLGCSHTVCKTCLNKLHRKACPFDQTAINTDIDVL
B3: MID1 RING domain (UniProt O15344); chain METLESELTCPICLELFEDPLLLPCAHSLCFNCAHRILVSHCATNESVESITAFQCPTCRHVITLSQRGL
B4: RNF25 RING domain (UniProt Q96BH1); chain LTDNNIPHGQCVICLYGFQEKEAFTKTPCYHYFHCHCLARYIQHMEQELKAQGQEQEQERQHATTKQKAVGVQCPVCREPLVYDLASL
B5: RNF170 RING domain (UniProt Q96K19); chain TRQQFYTDMYCPICLHQASFPVETNCGHLFCGACIIAYWRYGSWLGAISCPICRQTVTLLLTVF
Construct (chain): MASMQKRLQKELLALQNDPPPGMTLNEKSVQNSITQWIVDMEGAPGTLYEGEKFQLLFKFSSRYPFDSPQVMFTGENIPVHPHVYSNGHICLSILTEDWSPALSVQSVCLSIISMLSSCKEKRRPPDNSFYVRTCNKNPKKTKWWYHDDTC
| Molecule | lacZ reporter activity |
| --- | --- |
| B1 (UHRF2 RING domain) | 0 |
| DDENSDNSNECVVCLSDLRDTLILPCRHLCLCTSCADTLRYQANNCPICRLPFRALLQIR (MGRN1 RING domain (UniProt O60291)) | 0 |
| B2 (RC3H2 RING domain) | 0 |
| B3 (MID1 RING domain) | 0 |
| B4 (RNF25 RING domain) | 0 |
| B5 (RNF170 RING domain) | 0 |

Sample 5 — Variant: R88T; technique: DHFR PCA, deep sequencing; sample: yeast; baseline: wild-type fitted maximum; reading: higher = stronger binding
Target: ABI1, truncated, D143A, DHFR fusion (Arabidopsis thaliana)
Setting: methotrexate growth selection, single substitutions
Starting sequence: PYL1, truncated, DHFR fusion (Arabidopsis thaliana); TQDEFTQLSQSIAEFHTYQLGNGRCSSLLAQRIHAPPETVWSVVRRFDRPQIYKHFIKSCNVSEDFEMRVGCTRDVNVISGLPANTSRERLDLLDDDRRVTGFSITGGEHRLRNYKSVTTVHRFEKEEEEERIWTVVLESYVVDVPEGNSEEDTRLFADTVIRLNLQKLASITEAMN; partner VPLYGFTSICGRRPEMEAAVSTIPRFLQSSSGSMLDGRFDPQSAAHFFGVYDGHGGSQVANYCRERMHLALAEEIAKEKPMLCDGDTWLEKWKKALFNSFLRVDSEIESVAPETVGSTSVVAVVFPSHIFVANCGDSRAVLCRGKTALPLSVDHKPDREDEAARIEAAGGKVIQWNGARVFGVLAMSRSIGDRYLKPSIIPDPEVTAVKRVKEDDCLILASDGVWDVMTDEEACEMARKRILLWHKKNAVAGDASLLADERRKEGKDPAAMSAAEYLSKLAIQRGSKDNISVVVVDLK
| together with | relative binding score |
| --- | --- |
| (+)-ABA 0.0091 µM | 43.8% |
| (+)-ABA 2500 µM | 99.6% |
| (+)-ABA 58 µM | 84.3% |
| (+)-ABA 710 µM | 111% |
| (+)-ABA 200 µM | 102% |
| (+)-ABA 0 µM | 40.2% |

A few entries again (sample 2):
| Variant | normalised enrichment score |
| --- | --- |
| F8I | 0.0455 |
| T9F | 5.16 |
| L7N | 0.0927 |
| G10Q | 5.56 |
| T9P | 5.45 |
| A6F | 1.51 |
